Measurements from different studies.
Protocols differ between the studies behind these lines. Several values in a cell are separate wells, animals, samples, runs or records. ± gives the spread as reported.

Clc1ccc2c(c1)nc(NCC1CCCN1)n2Cc1ccccc1 (stereo not shown) — compound remaining (metabolic stability; rat, liver microsomes; 0.1 µM, 30 min, pH 7.4): 96.4%
CCCC[C@H](NC(C)=O)C(=O)N[C@H]1CC(=O)NCCCC[C@@H](C(=O)N[C@@H](C(=O)N2CCC[C@@H]2C(N)=O)C(C)C)NC(=O)[C@H](Cc2c[nH]c3ccccc23)NC(=O)[C@H](CCCN=C(N)N)NC(=O)[C@@H](Cc2ccc3ccccc3c2)NC(=O)[C@@H]2CCCN2C1=O — Cmax (Beagle dog, both sexes, plasma; subcutaneous, once daily, 2.25 mg/kg, day 1): 4900 ± 300 ng/mL
C[C@H]1CO[C@@H]2Cn3cc(C(=O)NCc4ccc(F)cc4F)c(=O)c(O[C@@H]4O[C@H](C(=O)O)[C@@H](O)[C@H](O)[C@H]4O)c3C(=O)N12 — participants with detectable plasma drug (humans UGT1A9 wild type; intramuscular, dose not given, 1 weeks post-injection): 100%
C=CC(=O)Nc1cc(Nc2nccc(-c3cn(C4CC4)c4ccccc34)n2)c(OC)cc1N(C)CCNC — share of radioactivity (radio-HPLC, co-eluting peaks pooled; human male, feces; oral, 110 mg, 0 to 240 h, sample holds 81.99% dose; baseline: sample radioactivity): 15%
Cn1c(=O)oc2ccc(-c3ccc(CC(C#N)NC(=O)C4CNCCCO4)c(F)c3)cc21 (stereo not shown) — AUC(0-t) (human volunteers, plasma; 15 mg single dose, fasted, geometric mean): 796 ng·h/mL
COC(=O)c1ccc(CCc2cc3cc4nc(c(OC)c5[nH]c(cc6nc(cc2[nH]3)CC6(C)C)cc5CCCNC(=O)OC(C)(C)C)C(=O)C4(C)C)cc1 — internal conversion yield (DMF; room temperature): 0.32
COc1cc2c(cc1OC)CN(CCCCn1ccc3cc(OCC[18F])ccc31)C2 — tracer uptake (male CD-1 mouse, brain; intravenous, 1 h): 1.69 %ID/g
COC(=O)C(Cc1c[nH]cn1)NC(=O)C1(C)C(O)CCC2(C)C1CCC1(C)C2CC=C2C3C(C)C(C)CCC3(C)CCC21C (stereo not shown) — hydrolysis rate constant (Wistar rat colon homogenate; 90 µg/mL, 37 °C): 0.0013 min⁻¹
[11CH3]c1ccc2nc(C3CCC3)n(-c3ccc4[nH]ncc4c3)c2n1 — absorbed dose (extrapolated from mouse; human female, Urinary bladder wall): 2.8 µSv/MBq
OCc1cn(Cc2ccc(-c3noc(-c4ccc(OCC[18F])c(C(F)(F)F)c4)n3)cc2)nn1 — tissue uptake (female Lewis rat, lung; intravenous, 30 min): 1.96 ± 0.07 %ID/g
CC(C)[C@H](NC(=O)CNC(=O)[C@H](CCC(N)=O)NC(=O)[C@H](C)N)C(=O)O — t1/2 (human, plasma; intravenous infusion, 15 mg/kg/h, 2 h infusion, geometric mean): 0.24 h
C[N+](C)(C)CC(CC(=O)[O-])OC(=O)CCC(=O)Nc1ccn([C@@H]2O[C@H](CO)[C@@H](O)C2(F)F)c(=O)n1 (stereo partly shown) — measured concentration (THU-treated rat plasma; 15.00 ng/mL, 1 h, 20 °C, bench-top stability, low QC): 15.5 ± 1.3 ng/mL
CCCCCCCC(=O)OC[C@H](NC(=O)[C@H](CO)NC(=O)CN)C(=O)N[C@@H](Cc1ccccc1)C(=O)N[C@@H](CC(C)C)C(=O)N[C@@H](CO)C(=O)N1CCC[C@H]1C(=O)N[C@@H](CCC(=O)O)C(=O)N[C@@H](Cc1cnc[nH]1)C(=O)N[C@@H](CCC(N)=O)C(=O)N[C@@H](CCCNC(=N)N)C(=O)N[C@H](C(=O)N[C@@H](CCC(N)=O)C(=O)N[C@@H](CCC(N)=O)C(=O)N[C@@H](CCCNC(=N)N)C(=O)N[C@@H](CCCCN)C(=O)N[C@@H](CCC(=O)O)C(=O)N[C@@H](CO)C(=O)N[C@@H](CCCCN)C(=O)N[C@@H](CCCCN)C(=O)N1CCC[C@H]1C(=O)N1CCC[C@H]1C(=O)N[C@@H](C)C(=O)N[C@@H](CCCCN)C(=O)N[C@@H](CC(C)C)C(=O)N[C@@H](CCC(N)=O)C(=O)N1CCC[C@H]1C(=O)N[C@@H](CCCNC(=N)N)C(=O)O)C(C)C — heart rate (chronic HFrEF patients; intravenous infusion, 0.1 µg/kg/min, end of 120 min infusion): 67 ± 11 bpm
CNc1cc(OC)c(Nc2nccc(-c3cn(C4CC4)c4ccccc34)n2)cc1NC(=O)CCSCC(N)C(=O)O (stereo not shown) — share of radioactivity (radio-HPLC, co-eluting peaks pooled; human, urine; dose not given, 0 to 96 h, sample holds 4.16% dose; baseline: sample radioactivity): 1.7%
CCCC(CCC(=O)O)NC(=O)c1ccc2c(c1)OCO2 (stereo not shown) — peak area (LC-MS extracted ion chromatogram; Sprague-Dawley rat, male and female, pooled plasma; oral, 200 mg/kg, 1 h): 1.35e+06 cps
CC(C)[C@H](NC(=O)[C@@H]1CCCN1C(=O)[C@H](CCCNC(=N)N)NC(=O)[C@H](CS)NC(=O)[C@H](Cc1c[nH]c2ccccc12)NC(=O)[C@H](CCCNC(=N)N)NC(=O)[C@@H](Cc1ccccc1)NC(=O)[C@H](Cc1c[nH]cn1)NC(=O)[C@H](CCC(=O)O)NC(=O)[C@H](CS)NC(=O)[C@H](CS)NC(=O)[C@@H]1CC(=O)N[C@@H](CCCNC(=N)N)C(=O)NCC(=O)N[C@@H](CC(=O)O)C(=O)N[C@H](Cc2ccc(O)cc2)C(=O)N1)C(N)=O [technetium-99m labelled] — tumour to tissue ratio (C57 mouse, female, B16/F1 melanoma; intravenous, 0.037 MBq, 2 h; baseline: tumour over blood): 21.8
CCCC[C@@H]1NC(=O)[C@@H](NC(=O)[C@H](CCC(=O)O)NC(=O)CNC(=O)CN2CCN(CC(=O)O)CCN(CC(=O)O)CCN(CC(=O)O)CC2)CCCCNC(=O)C[C@@H](C(N)=O)NC(=O)[C@H](C(C)C)NC(=O)[C@@H]2CCCN2C(=O)[C@H](CCCNC(=N)N)NC(=O)CNC(=O)[C@H](Cc2c[nH]c3ccccc23)NC(=O)[C@H](CCCNC(=N)N)NC(=O)[C@@H](Cc2ccccc2)NC(=O)[C@H](Cc2c[nH]cn2)NC(=O)[C@H](CCC(=O)O)NC1=O [gallium-67 labelled] — tissue ratio (C57 mice, B16/F1 flank melanoma; intravenous, 2 h, with: blocking peptide 10 µg; baseline: tumour over blood): 1.54
CC(C)(C)NCC(SS(=O)(=O)O)c1ccccc1 (stereo not shown) — Vss (Swiss Webster CFW mouse, female, plasma; intravenous, 15 mg/kg, from 0 h to last): 0.693 L/kg
CC(C)[C@H](CO)Nc1nc(Nc2ccc(C(=O)NCCNS(=O)(=O)c3cccc4c(N(C)C)cccc34)c(Cl)c2)c2ncn(C(C)C)c2n1 — concentration (C57BL/6 mouse, cerebellum; intraperitoneal, 20 mg/kg, 4 h): 140 ± 50 nM
N=C(N)NCCC[C@H](NC(=O)COC(=O)[C@H](Cc1ccccc1)NC(=O)OCC1c2ccccc2-c2ccccc21)C(=O)NCC(=O)N[C@@H](CC(=O)O)C(=O)O — softness ratio (rheology; 10 mg/mL; baseline: Fmoc-FRGD at half concentration): ~3
C=CC(=C)CC[C@]1(C)[C@H](C)C[C@H](OC(=O)CCCCCCC)[C@@]23C(=C[C@H](OC(C)=O)C[C@@H]12)[C@@H](OC(C)=O)O[C@H]3OC(C)=O — haemolysis (haemolysis; 100 µM): 12.2%
C#CCOc1ccc(/C=C2\SC(=O)N(CC(=O)NCc3ccccc3)C2=O)cc1 — Kirkwood-Buff integral G1,3 (inverse Kirkwood-Buff integrals; binary solvent mixture; 298.15 K, mole fraction x1 1.00): -257 cm³/mol
CCC(=O)N[C@@H](C)C(=O)OCC(=O)N[C@@H](C)C(=O)O — depolymerization half-life (water; pH 8, 25 °C): 45 h
COC[C@@H](CC(C)C)NC(=O)c1ccc(CO)c(C)c1 — metabolite peak area (LC-MS; Sprague-Dawley rats, pooled sexes, plasma; oral, 100 mg/kg of parent drug, 1 h; baseline: total metabolite peak area): 54.1% and 54%
COc1cc(-c2nc3ccccc3s2)cc(CN2CCN(CC(=O)O)CCN(CC(=O)O)CC2)c1O — pKa4 (UV-Vis pH titration; 25 °C, ionic strength 0.1 M NaCl): 11.8
CCc1cc(Nc2nc(-c3ccc(-n4cnc(C)c4)c(F)c3)cs2)c(C)cc1C — apparent clearance (CL/F) (human, plasma; oral, 200 mg once daily, day 14, multiple dose, geometric mean): 44100 mL/h
CONC(=O)/C=C/c1cccc(S(=O)(=O)Nc2ccccc2)c1 — fold change in AUC metabolite ratio (human patients, liver dysfunction; intravenous, 400 mg/m^2 of belinostat, with worsening liver function; baseline: compound over parent drug): ~2 fold
COc1cc(OC)cc(C2=C3C(C)=C(I)C(C)=[N+]3[B-](F)(F)n3c(/C=C/c4c[nH]c5ccc([N+](=O)[O-])cc45)c(I)c(C)c32)c1 — Stokes shift (dichloromethane): 629 cm⁻¹
COc1ccc([C@@H]2CC(=O)c3c(O)cc(O[C@@H]4O[C@H](CO[C@@H]5O[C@@H](C)[C@H](O)[C@@H](O)[C@H]5O)[C@@H](O)[C@H](O)[C@H]4O)cc3O2)cc1O — measured concentration (rat plasma; 31.25 ng/mL, 12 h, room temperature, autosampler stability): 30 ± 0.31 ng/mL
CC(C)c1cnc(-c2cc(Cl)ccc2F)cc1Nc1ccncc1C(=O)NC(CO)CO — treatment-related adverse events (refers to: Fatigue; solid tumour patients; oral, dose not given, phase I monotherapy): 9.5%
COC(=O)C(c1ccccc1Cl)N1CCC(SCC(=O)c2cccc(OC)c2)C(=CC(=O)O)C1 (stereo not shown) — measured concentration (LC-MS/MS; human plasma; 2 ng/mL, 8 h, room temperature): 2.2 ± 0.4 ng/mL
Cc1cc2c(cc1C1(c3ncc(C(=O)O)cn3)CC1)C(C)(C)CCC2(C)C — blood triglycerides (Sprague-Dawley rat, male; oral, 100 mg/kg, 2 h, sesame oil vehicle): 82 ± 16.5 mg/dL
CCOc1ccc2c(c1)C(C)=CC(C)(C)N2c1cc(OCC)cc2c1NC(C)(C)C=C2C — residue concentration (LC-MS/MS; laying hens, liquid whole egg; oral, 50 mg/kg feed of ethoxyquin, 56 days): 6.6 ± 1.9 ng/g
CCC1CNC(CC)CN(CC(=O)O)C(CC)CN(CC(=O)O)C(CC)CN1 (stereo not shown) — sum log K3 + log K4 (pH-potentiometric titration; 25 °C, 0.1 M KCl): 8
CCCCCC(O)C=CC1OC2OC(C1CC=CCCCC(=O)O)C2(F)F (stereo not shown) — hydrolysis half-life (phosphate buffer with DMSO; concentration not given, pH 2.42): 190 h
CCNC(=O)OCc1c(COC(=O)NCC)c(-c2ccc(OC)cc2)n2c1Cc1ccccc1-2 — decrease in RBC and haemoglobin (BALB/c nude mice; concentration not given, day 10; baseline: control mice): ~20%
NC(=O)c1ccc(C(=O)NOCc2ccc(Sc3cccc(Cl)c3)c(C(F)(F)F)c2)cc1 — Vz (male ICR mouse, plasma; intravenous, 10 mg/kg): 0.276 L/kg
CC(C)[C@H](NC(=O)[C@@H]1CCCN1C(=O)[C@H](CCCNC(=N)N)NC(=O)[C@H](CS)NC(=O)[C@H](Cc1c[nH]c2ccccc12)NC(=O)[C@H](CCCNC(=N)N)NC(=O)[C@@H](Cc1ccccc1)NC(=O)[C@H](Cc1c[nH]cn1)NC(=O)[C@H](CCC(=O)O)NC(=O)[C@H](CS)NC(=O)[C@H](CS)NC(=O)COCCOCCNC(=O)[C@@H]1CC(=O)N[C@@H](CCCNC(=N)N)C(=O)NCC(=O)N[C@@H](CC(=O)O)C(=O)N[C@H](Cc2ccc(O)cc2)C(=O)N1)C(N)=O [technetium-99m labelled] — tissue uptake (nude mouse, M21 melanoma xenograft, pancreas; intravenous, 2 h): 0.09 ± 0.04 %ID/g
O=C([O-])CN1CCN(CC(=O)[O-])CCN(CC(=O)NCC2CCC(C(=O)NC(Cc3ccc4ccccc4c3)C(=O)NCCCCC(NC(=O)NC(CCC(=O)O)C(=O)O)C(=O)O)CC2)CCN(CC(=O)[O-])CC1.[44Sc+3] (stereo not shown) — residence time (PET/CT dosimetry, OLINDA/EXM; human, liver): 0.779 h
NC[C@@H](C(=O)Nc1ccc(-c2cn[nH]c2)cc1)c1ccccc1 — iris score (OECD 405 eye irritation; New Zealand White rabbit, eye; topical, 0.1%, 56 h (day 3), scale 0 to 2; direction not given): 0
N=C(N)NCCC[C@@H]1NC(=O)[C@H](Cc2c[nH]c3ccccc23)NC(=O)[C@@H](CC2CCCCC2)NC(=O)[C@@H]2CCCN2C(=O)[C@@H](NC(=O)CCc2ccccc2)CCCNC1=O — K21 (two-compartment model; C57BL/6J mouse, plasma plasma; intravenous, 1 mg/kg single dose): 5.82 h⁻¹
CC1(C)CCC(CN2CCN(c3ccc(C(=O)NS(=O)(=O)c4ccc(NCC5COCCO5)c([N+](=O)[O-])c4)c(N4CCCOc5nc6[nH]ccc6cc54)c3)CC2)=C(c2ccc(Cl)cc2)C1 (stereo not shown) — maximum platelet reduction (male Beagle dogs, whole blood; oral, 25 mg/kg): 17%
NC12CNCCNCC(NCc3ccc(CNC(=O)CCCC(=O)NCc4ccc(-c5nncnn5)cc4)cc3)(CNCCNC1)CNCCNC2.[64Cu+2] — mean absorbed dose (OLINDA dosimetry; gallbladder wall; pretargeting, 48-h interval): 0.0368 rad/mCi
